Experimental data collected from several papers.
Numbered parts are unrelated; each lists some results of a single study. Positions count from the first letter of the parent shown.

Sample 1 — Change: R90T; method: DHFR PCA, deep sequencing; medium: yeast; baseline: wild-type fitted maximum; reading: higher = stronger binding
Target: ABI1, truncated, D143A, DHFR fusion (Arabidopsis thaliana)
Notes: methotrexate growth selection, single substitutions
Starting sequence: PYL1, truncated, DHFR fusion (Arabidopsis thaliana); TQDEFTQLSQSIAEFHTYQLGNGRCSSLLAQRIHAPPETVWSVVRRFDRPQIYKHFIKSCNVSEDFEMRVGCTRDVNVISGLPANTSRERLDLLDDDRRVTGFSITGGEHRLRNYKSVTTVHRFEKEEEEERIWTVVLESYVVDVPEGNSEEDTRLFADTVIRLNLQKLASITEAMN
setting	relative binding score [%]
added: (+)-ABA 0 µM	0.647
added: (+)-ABA 0.39 µM	20.6
added: (+)-ABA 710 µM	97.5
added: (+)-ABA 200 µM	90.6
added: (+)-ABA 0.032 µM	2.8
added: (+)-ABA 4.8 µM	45.8

Sample 2 — method: protein binding microarray; form: double-stranded DNA, one strand shown; medium: in vitro; tested at: not given; baseline: not given; reading: higher = stronger binding
Target: Histone acetyltransferase KAT6A, winged helix 1, GST fusion (KAT6A, Homo sapiens, UniProt Q92794, residues 1-85)
Notes: 8-mer, flanks averaged, mean of 2 arrays, mostly near background
Construct (chain): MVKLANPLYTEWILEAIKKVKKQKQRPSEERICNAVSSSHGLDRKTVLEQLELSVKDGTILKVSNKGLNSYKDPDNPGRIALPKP
Oligonucleotide	E-score
ATAAAAGA	0.0439
GGTCCTCA	0.0185
GCCGCTGA	0.338
GGACGTCA	0.00455
ATCTTCGC	0.014
GCTGTTCA	-0.157
TGCTAGCA	0.0481
AAGTTGTC	-0.0555

Sample 3 — method: RNA Bind-n-Seq; form: RNA; medium: in vitro; tested at: 200 nM; notes: whole 134-nt RNA, ends assumed; added: 150 mM LiCl; baseline: input library; reading: higher = stronger binding; each molecule: 7-deaza-guanosine replaces G
Target: Ras GTPase-activating protein-binding protein 1, full length (G3BP1, Homo sapiens, UniProt Q13283)
Chain of UniProt Q13283 (whole entry, looked up): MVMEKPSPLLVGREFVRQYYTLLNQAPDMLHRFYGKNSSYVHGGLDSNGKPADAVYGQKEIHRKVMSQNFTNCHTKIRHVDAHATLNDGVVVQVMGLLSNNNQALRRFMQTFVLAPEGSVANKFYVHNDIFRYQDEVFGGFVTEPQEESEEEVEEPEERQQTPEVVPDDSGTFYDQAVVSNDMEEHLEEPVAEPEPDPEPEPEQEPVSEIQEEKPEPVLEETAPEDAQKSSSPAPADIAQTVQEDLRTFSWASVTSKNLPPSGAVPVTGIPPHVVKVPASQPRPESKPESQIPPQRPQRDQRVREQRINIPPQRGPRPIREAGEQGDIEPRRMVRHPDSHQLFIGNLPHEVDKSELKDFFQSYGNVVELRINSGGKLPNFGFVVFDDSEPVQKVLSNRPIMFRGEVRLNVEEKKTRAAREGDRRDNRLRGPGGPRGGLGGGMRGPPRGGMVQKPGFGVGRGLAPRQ
Constant ends, left off below: GGGAGUUCUACAGUCCGACGAUC … UGGAAUUCUCGGGUGUCAAGG
Oligonucleotide	log2 enrichment
CAAGUCCUGUGCUACACAUCGUAUGUACCGAAUCGGAAAAAGGAAAAAAAGGAGGAAAGUAUUAUGUUACGCCGUUCGGAUCUGCACUUC	-0.616
CACAGACAACACGCACCCACACAGACACAGAGGGAAGGGGUUGGGAUGGGGACAGGGUGCACAGCAGAAAGGGGUAGGACCCCAGCCCCU	0.366
UUCCAUUGUGAACGUGCCUGGUGAGUCUACUCUUCGCCGAGAUUUCCUGAGACUGCAGCAGGAGAACAAGGAACGUUCCGAGGCUCUUCG	-0.735
AAGUCCUGUGCUACACAUCGUAUGUACCGAAUCGGGAAAAAGGAAAAAGGAAAAAGGAAAGUAUUAUGUUACGCCGUUCGGAUCUGCACU	-0.214
ACCAUGCAGGUGGGCAUCUUUGGGAAGUGGGGCAAGGGGGGGAUAGGGAGGGGGGUAACACUUUGGGAACAAAAGGUCCCAGGUCGUUUC	0.318
UGAUCUCCAGGAUGACAUGCGAAGAUGCCAAAUCAUCCGAGACAUGAUUGGACCGGAAAAGACUUUGGUAAAUAUCCUCUCACACCACUA	1.09
CUGUGCUACACAUCGUAUGUACCGAAUCGGGGUUUUUGGGGUUUUUUUGGGGAAAAAGGGGAAAGUAUUAUGUUACGCCGUUCGGAUCUG	0.685
CCUCAAGUCCUGUGCUACACAUCGUAUGUACCGAAUCGGGGUGGGUGGGUGGGAAAGUAUUAUGUUACGCCGUUCGGAUCUGCACUUCCA	0.681

Mixed results
Starting sequence: PafA, mature enzyme, eGFP fusion (Elizabethkingia meningoseptica, UniProt Q9KJX5); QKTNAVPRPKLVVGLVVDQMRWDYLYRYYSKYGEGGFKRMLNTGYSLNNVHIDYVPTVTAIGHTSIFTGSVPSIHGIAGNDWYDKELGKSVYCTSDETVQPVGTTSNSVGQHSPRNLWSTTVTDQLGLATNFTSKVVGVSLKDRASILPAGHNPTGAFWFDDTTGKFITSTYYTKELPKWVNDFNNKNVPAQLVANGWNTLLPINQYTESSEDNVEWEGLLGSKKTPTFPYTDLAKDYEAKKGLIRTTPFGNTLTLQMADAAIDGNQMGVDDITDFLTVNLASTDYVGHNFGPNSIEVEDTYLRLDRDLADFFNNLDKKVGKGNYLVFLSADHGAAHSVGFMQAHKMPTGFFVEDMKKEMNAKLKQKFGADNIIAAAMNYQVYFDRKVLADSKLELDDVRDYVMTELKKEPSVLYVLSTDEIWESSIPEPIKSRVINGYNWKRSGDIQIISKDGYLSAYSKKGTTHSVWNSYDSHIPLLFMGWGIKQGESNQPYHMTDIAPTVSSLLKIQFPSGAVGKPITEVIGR
Change	target	assay	test system	setting	how to read	measurement	value
F341G	inorganic phosphate, free oxyanion	microfluidic competitive inhibition	in vitro, cell-free expressed	not given, derived from inhibition constants, unchanged parent 615000 nM	lower = stronger binding	phosphate dissociation constant	305 µM

Repeated from above (mixed results):
Change	target	assay	test system	setting	how to read	measurement	value
F341G	inorganic phosphate, free oxyanion	microfluidic competitive inhibition	in vitro, cell-free expressed	not given, derived from inhibition constants, unchanged parent 615000 nM	lower = stronger binding	phosphate dissociation constant	305 µM
